Experimental data collected from several papers.
Compare with care: the assays were run in different laboratories. Several values in a cell are separate wells, animals, samples, runs or records. Numbers after ± are the reported error.
Chain of UniProt P08684 (whole entry, looked up): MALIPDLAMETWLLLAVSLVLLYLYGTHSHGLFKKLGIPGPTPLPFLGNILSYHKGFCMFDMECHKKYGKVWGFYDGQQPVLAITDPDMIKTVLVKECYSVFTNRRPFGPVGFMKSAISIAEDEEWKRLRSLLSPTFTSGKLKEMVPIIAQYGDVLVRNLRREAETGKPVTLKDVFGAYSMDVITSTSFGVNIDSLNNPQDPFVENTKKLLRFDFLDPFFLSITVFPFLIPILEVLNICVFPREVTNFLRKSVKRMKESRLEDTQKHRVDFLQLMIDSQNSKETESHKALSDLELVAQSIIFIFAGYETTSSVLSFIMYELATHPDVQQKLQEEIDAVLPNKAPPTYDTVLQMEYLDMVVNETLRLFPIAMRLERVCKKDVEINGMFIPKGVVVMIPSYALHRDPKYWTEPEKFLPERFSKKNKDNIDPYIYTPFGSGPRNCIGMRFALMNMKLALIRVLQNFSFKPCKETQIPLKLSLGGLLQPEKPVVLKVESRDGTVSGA

For `CCCCc1ccc(-c2ccc(C#N)cc2)cc1`, the concentration was 0.24 ng/mL (item: compound; human pregnant women, male fetuses, cord serum; dose not given, paired maternal-cord samples, mean).
`O=C(O)c1ccoc1S(=O)(=O)NCc1cc(-c2ccccc2)no1` — result for “DLS scattered light intensity”: 1.44e+06 counts/s (colloidal aggregate formation, dynamic light scattering; 50 mM potassium phosphate buffer; 200 µM, pH 7.0, 1% DMSO; higher = more aggregation).
`C=CCN1CC(=O)N2[C@@H](Cc3ccc(O)cc3F)C(=O)N(Cc3cccc(N4CC(N5CCN(CC)CC5)C4)n3)C[C@@H]2N1C(=O)NCc1ccccc1`: “treatment-related adverse events” 0% (item: Diarrhea; advanced solid tumour patients; all doses, dose-escalation part, grade ≥3).
`COc1cc2c(cc1OC)CN(CCc1ccc(NC(=O)c3cc(OC)c(OC)cc3NC(=O)c3cnc4ccccc4c3)cc1)CC2` has a plasma concentration of 2.71 µM (human, plasma; intravenous, 5.9 mg/kg, 90 min).
`COc1ccc2cc(CNC(=O)C3(C(=O)O)CC=CC3)ccc2c1`: “DLS scattered light intensity” 710000 counts/s (colloidal aggregate formation, dynamic light scattering; 50 mM potassium phosphate buffer; 200 µM, pH 7.0, 1% DMSO; higher = more aggregation).
Under “patients with cardiac disorders”, `Cc1cc(Nc2ccc(S(F)(F)(F)(F)F)cc2)n2nc(C(C)(F)F)nc2n1` is recorded as 0% (Plasmodium falciparum; P. falciparum malaria patients; oral, 250 mg).
`CC(C)[C@@H](CS(=O)(=O)C(C)C)N1C(=O)[C@@](C)(CC(=O)O)C[C@H](c2cccc(Cl)c2)[C@H]1c1ccc(Cl)cc1`: “volume of distribution” 0.504 L/kg (FVB Abcg2-/- mice, plasma; intravenous, 20 mg/kg).
For `C[C@H]1[C@H]2N(C(=O)CN(C)N2C(=O)NCc2ccccc2)[C@@H](Cc2ccc(OP(=O)(O)O)cc2)C(=O)N1Cc1cccc2cccnc12`, the AUC(0-24 h) was 7260 ng·h/mL (patients, plasma; intravenous infusion, 280 mg/m2 over 4 h, mean).
For `Cn1ncc(S(=O)(=O)NC(c2ccc(Cl)cc2)c2cccc(Cl)c2)c1C(=O)O` (stereo not drawn), “DLS scattered light intensity” read 498000 counts/s (colloidal aggregate formation, dynamic light scattering; 50 mM potassium phosphate buffer; 200 µM, pH 7.0, 1% DMSO; higher = more aggregation).
For `Cc1ccc(C(=O)N(CCCN)C(c2nc3snc(C)c3c(=O)n2Cc2ccccc2)C(C)C)cc1` (stereo not drawn), “plasma concentration at 24 h” read 4.5 ng/mL (human patients, plasma; intravenous, 4 mg/day, day 3 of induction course, geometric mean).
For `CC1(C(=O)O)CCC(C(=O)Nc2ccc(Nc3ccccc3)cc2)C1(C)C` (stereo not drawn), the HC50 was over 128 µg/mL (haemolysis; sheep erythrocytes; 1 h, pH 7.5).
For `CC(=O)Oc1ccccc1C(=O)O`, the QTc interval was 299 ± 0.2 ms (male Hartley guinea pig, anaesthetized; intravenous, 10 mg/kg, baseline before infusion).
`CCOc1c([C@H](C)n2nc(C)c3c(N)ncnc32)cc(Cl)c(F)c1[C@@H]1CNC(=O)C1`: “share of patients” 4.2% (item: 30 < ΔQTcF ≤ 60 ms; previously treated B-cell malignancy; oral, 30 mg once daily, baseline QTcF ≤450 ms).
`CCO[C@H]1CCN(Cc2c(OC)cc(C)c3[nH]ccc23)[C@H](c2ccc(C(=O)O)cc2)C1` — result for “incidence of GGT increase”: 0% (PNH patients, active haemolysis; oral, 50 mg, 4 weeks, treatment).
`O=C(O)CCCCCCCCCCCCC(=O)O` — result for “daily mean concentration”: 83.1 ± 13.9 nM (human, plasma; endogenous baseline diurnal).
For `CC(C)C[C@H](NC(=O)C[C@H](O)[C@H](CC(C)C)NC(=O)[C@H](Cc1c[nH]cn1)NC(=O)CNC(=O)[C@@H](NC(=O)[C@H](C)NC(=O)[C@H](Cc1c[nH]c2ccccc12)NC(=O)[C@H](CCC(N)=O)NC(=O)[C@@H](Cc1ccccc1)NC(=O)COCCOCCNC(=O)CCC(C(=O)O)N1CCN(CC(=O)O)CCN(CC(=O)O)CCN(CC(=O)O)CC1)C(C)C)C(N)=O` (stereo partly drawn) [lutetium-177 labelled], the tissue uptake was 17 ± 17 %ID/g (female BALB/c nu/nu mice, bladder; intravenous, 100 pmol, 4 h, together with: PA 300 µg).
With `Nc1ccn([C@@H]2O[C@H](CO)[C@@H](O)C2(F)F)c(=O)n1` the Tmax, mean was 65.6 min (item: dFdU; human, plasma; intravenous, 800 mg/m^2, together with: before paricalcitol).
For `Cc1nc(-c2ccc(OCC(C)C)c(C#N)c2)sc1C(=O)O`, “subjects with grade 2 AEs” read 0% (healthy Chinese subjects, fasted; oral, 40 mg single dose).
`Oc1ccc(/C=C/c2cc(O)cc(O)c2)cc1` gave a r-GT level of under 3 IU/L (rat, azoxymethane-injected, blood; in vivo, 100 mg/kg, at sacrifice).
The Vdss of `Cc1cccc(CNC(=O)c2cn(CCNC(=O)c3ccccc3Sc3c([N+](=O)[O-])ncn3C)c3cc4c(cc3c2=O)OC(F)(F)O4)n1` is reported as 10.2 ± 1.64 L/kg (Sprague-Dawley rat, male, plasma; intravenous, 5 mg/kg).
`COC(=O)[C@H](CCSC(F)(F)F)NS(=O)(=O)c1cccc(Cl)c1O` — result for “DLS scattered light intensity”: 646000 counts/s (colloidal aggregate formation, dynamic light scattering; 50 mM potassium phosphate buffer; 200 µM, pH 7.0, 1% DMSO; higher = more aggregation).
For `CNC(=O)c1cccc(-c2ccc([C@@H](O)[C@H]3O[C@H](CO)[C@@H](O)[C@H](O)[C@@H]3O)c(C)c2)c1`, the terminal half-life was 28.9 min and 30.7 min and 28.3 min (Sprague-Dawley rat, male, plasma; intravenous, 3 mg/kg).
`CC[C@H](C)[C@H](NC(=O)[C@H](Cc1ccccc1)NC(=O)[C@H](CCC(=O)O)NC(=O)[C@H](CCCCNC(=O)COCCOCCNC(=O)COCCOCCNC(=O)CC[C@H](NC(=O)CCCCCCCCCCCCCCCCC(=O)O)C(=O)O)NC(=O)[C@H](C)NC(=O)[C@H](C)NC(=O)[C@H](CCC(N)=O)NC(=O)CNC(=O)[C@H](CCC(=O)O)NC(=O)[C@H](CC(C)C)NC(=O)[C@H](Cc1ccc(O)cc1)NC(=O)[C@H](CO)NC(=O)[C@H](CO)NC(=O)[C@@H](NC(=O)[C@H](CC(=O)O)NC(=O)[C@H](CO)NC(=O)[C@@H](NC(=O)[C@H](Cc1ccccc1)NC(=O)[C@@H](NC(=O)CNC(=O)[C@H](CCC(=O)O)NC(=O)C(C)(C)NC(=O)[C@@H](N)Cc1cnc[nH]1)[C@@H](C)O)[C@@H](C)O)C(C)C)C(=O)N[C@@H](C)C(=O)N[C@@H](Cc1c[nH]c2ccccc12)C(=O)N[C@@H](CC(C)C)C(=O)N[C@H](C(=O)N[C@@H](CCCNC(=N)N)C(=O)NCC(=O)N[C@@H](CCCNC(=N)N)C(=O)NCC(=O)O)C(C)C`: “diastolic blood pressure difference” 1.2 mm Hg (type 2 diabetes patients; dose not given, hypoglycaemic clamp, nadir PG 5.5 mmol/L; relative to: placebo).
Under “deviation from nominal concentration”, `C[C@]1(Cn2ccnn2)[C@H](C(=O)O)N2C(=O)C[C@H]2S1(=O)=O` is recorded as 8.3% (human whole blood; concentration not given, 8 h, 4 °C).
Under “PR interval change”, `Cc1c(-c2ccc(N3CCc4cccc(C(=O)Nc5nc6ccccc6s5)c4C3)nc2C(=O)O)cnn1CC12CC3(C)CC(C)(C1)CC(OCCNCC[C@H](O)CO)(C3)C2` is recorded as -2 ms (anesthetized male beagle dogs; intravenous infusion, 0.3 mg/kg/min, 45 min; relative to: vehicle).
`CCc1cc(C(=O)NC)c2nccc(N3CCc4c(cc(Cn5ccnc5)cc4-c4cn(C)nc4C(F)(F)F)C3=O)c2c1`: “serum RDW change” -2.94% (Sprague Dawley rats; oral, 50 mg/kg once daily, 7 days; relative to: vehicle).
`CC[C@H]1[C@@H](O)[C@@H]2[C@H](CC[C@]3(C)[C@@H]([C@H](C)CCNC(=O)NS(=O)(=O)c4ccc(C(C)(C)C)cc4)CC[C@@H]23)[C@@]2(C)CC[C@@H](O)C[C@@H]12` has a Vd/F mean of 452 L (Cytochrome P450 3A4 (CYP3A4, Homo sapiens, UniProt P08684); substrate; human, plasma; 10 mg, alone, study day 1).
`CC(C)(C(=O)N1CCOc2c(C#N)cncc2C1)C(F)F`: “subjects with dizziness TEAE” 16.7% (human, both sexes; oral, 40 mg single dose).
For `Cl.[2H]C([2H])([2H])CC(=O)c1cnc(NC(=O)C2CC2)cc1Nc1cccc(-c2ncn(C([2H])([2H])[2H])n2)c1OC`, the Ctrough was 226 ng/mL (human, fasted, multiple dose; oral, 40 mg twice daily, tablet, day 14, geometric mean).
The fraction unbound of `CNC(=O)c1ccc(-c2cnc3ncc(Cc4ccc5ncccc5c4)n3n2)cc1F` is reported as 0.029 (ultrafiltration; human normal hepatic function, plasma; oral, 200 mg, 3 h post-dose, geometric mean).
With `COc1cccc(OC)c1-c1cc(C(=O)NC2(C(=O)O)C3CC4CC(C3)CC2C4)nn1-c1ccc(C(=O)N(C)CCCN(C)CCCN(C)C(=O)CN2CCN(CC(=O)[O-])CCN(CC(=O)[O-])CCN(CC(=O)[O-])CC2)cc1C(C)C.[177Lu+3]` (stereo not drawn) the tumour-to-brain ratio was 21.9 (mouse, HT-29 xenograft; 168 h post injection, biodistribution; relative to: tumour over brain uptake).
The SHBG level of `N#Cc1ccc2c(c1)[C@H]1CCCN(C(=O)c3ccc4[nH]cnc4c3)[C@H]1C2` is reported as 28.6 nmol/L (human females; 10 mg, day 15).
For `O=C1c2ccncc2C(=O)c2c1[nH]c1ccccc21`, the terminal half-life was 204 ± 42 min (Sprague-Dawley rat female, plasma; intravenous, 1 mg/kg).
For `O=C(O)CNC(=O)Cc1ccccc1`, the sarcomere length was 1.62 µm (ventricular cardiomyocytes, C57BL/6 mouse; dose not given, 0.184 s).
Under “lymphocytes in white blood cells”, `CNCc1ccc(-c2cc(-c3nc(-c4ccc(S(=O)(=O)C(C)C)cc4)cnc3N)on2)cc1` is recorded as 45.8% (female BALB/c mice; single dose, dose not given, 48 h, together with: total body irradiation 6 Gy).
`COc1ccc2nc([S+]([O-])Cc3ncc(CO)c(OC)c3C)[nH]c2c1` (stereo not drawn) — result for “metabolite to parent Cmax ratio”: 0.244 (CYP2C19 (Homo sapiens, UniProt P33261); human, plasma; oral, 20 mg omeprazole, Day 1, together with: single dose encorafenib and binimetinib; relative to: 5-hydroxyomeprazole over omeprazole).
`C=CC(=O)NC1CCN(c2ncc3ncnc(Nc4ccc(Oc5ccc6c(c5)ncn6C)c(C)c4)c3n2)CC1`: “adverse events incidence” 0% (item: musculoskeletal disorders (SOC); human male; oral, dose not given, AEs, treatment-related, on drug, CTCAE).
`CC(C(=O)NCC(=O)NCC(CNC(=O)CNC(=O)C(C)N1CCN(CC(=O)[O-])CCN(CC(=O)[O-])CCN(CC(=O)[O-])CC1)(CNC(=O)CNC(=O)C(C)N1CCN(CC(=O)[O-])CCN(CC(=O)[O-])CCN(CC(=O)[O-])CC1)CNC(=O)CNC(=O)C(C)N1CCN(CC(=O)[O-])CCN(CC(=O)[O-])CCN(CC(=O)[O-])CC1)N1CCN(CC(=O)[O-])CCN(CC(=O)[O-])CCN(CC(=O)[O-])CC1.[Gd+3].[Gd+3].[Gd+3].[Gd+3]` (stereo not drawn) — result for “cumulative faecal excretion”: 0.4% (ICP-MS; cynomolgus monkey; 58 days; relative to: dose).
Under “log2 fold change”, `Cn1cc(-c2ccc(-c3cncc(Cl)c3N3CCC4(CCNC4=O)CC3)cc2)cn1` is recorded as 2.74 (COLO 205; gene expression, microarray, item: SAT1 mRNA; concentration not given, 6 h; relative to: untreated cells).
For `Cc1ccc(Sc2ccccc2N2CCNCC2)c(C)c1`, the pyrexia incidence was 0% (healthy adult men; oral, 20 mg single dose, treatment-emergent adverse events).
`COC(=O)C(Cc1cccc(C)c1I)NC(=O)CNCc1ccccc1` (stereo not drawn) has a half-life of over 180 min (beagle dog; 1 µM).
With `Cn1cc([C@H]2C[C@H]3CSC(N)=N[C@@]3(c3ccc(F)cc3F)CO2)cn1` the brain concentration was 5.94 µM (male 129/SVE mouse, brain; subcutaneous, 50 mg/kg, 3 h).
`O=C(COc1ccc(Cl)cc1)NC12CC(c3nnc([C@H]4C[C@@H](OC(F)(F)F)C4)o3)(C1)C2` — result for “adverse event incidence”: 36.8% (item: Headache; human; 28 (unit not given)).
`COc1ccnc(C(=O)O)c1O` — result for “Freundlich coefficient KF”: 93.8 mL/g (soil adsorption; clay soil; pH 7.6, organic carbon 1.7 %).
`C=CC(=O)NC1CCN(c2ncc3ncnc(Nc4ccc(Oc5ccc6c(c5)ncn6C)c(C)c4)c3n2)CC1` gave a blood-to-plasma ratio of 3.79 (item: total radioactivity; healthy male human, whole blood and plasma; oral, 60 mg, 264 h, geometric mean).

A few entries again:
With `Nc1ccn([C@@H]2O[C@H](CO)[C@@H](O)C2(F)F)c(=O)n1` the Tmax, mean was 65.6 min (item: dFdU; human, plasma; intravenous, 800 mg/m^2, together with: before paricalcitol).
For `CCCCc1ccc(-c2ccc(C#N)cc2)cc1`, the concentration was 0.24 ng/mL (item: compound; human pregnant women, male fetuses, cord serum; dose not given, paired maternal-cord samples, mean).
With `Cn1cc([C@H]2C[C@H]3CSC(N)=N[C@@]3(c3ccc(F)cc3F)CO2)cn1` the brain concentration was 5.94 µM (male 129/SVE mouse, brain; subcutaneous, 50 mg/kg, 3 h).
